Results of several laboratories.
Compare with care: the assays were run in different laboratories. ± gives the spread as reported.

NCCc1ccc(S(=O)(=O)F)cc1  maximum inhibition (human coronavirus OC43; virus-induced cell killing; MRC-5; screen): 6.34%
O=[N+]([O-])c1ccc(N2CCN(CCC(O)c3ccc(F)cc3)CC2)c(C(F)(F)F)c1 (stereo not drawn)  survival (Salmonella typhimurium; SOS/umu test; TA1535/pSK1002; 0.001 mg/mL, 4 h, without S9 activation): 114%
O=NN1CCN(C2CCCC2)CC1  revertant colonies per plate (Salmonella typhimurium; mutagenicity, Ames plate incorporation; TA98; 150 µg/plate, 3 d, without S9, methanol): 23.7 ± 5
C=CC(=O)N1CCN(c2nc(=O)n(-c3c(C)ccnc3C(C)C)c3nc(-c4c(O)cccc4F)c(F)cc23)[C@@H](C)C1  maximum inhibition (human coronavirus OC43; virus-induced cell killing; MRC-5; screen): 4.97%
Cc1cc(C(=O)NC(C)(C)COc2cccc3c2C(N)=NS(=O)(=O)N3)cc(C)n1  revertant ratio (Salmonella typhimurium; Ames test, initial; TA100; 50.0 µg/plate, together with: rat liver S9; relative to: solvent control): 1.1
CC(C)N(C)N=O  revertant colonies per plate (Salmonella typhimurium; mutagenicity, Ames plate incorporation; TA98; 50 µg/plate, 3 d, without S9, methanol): 23.3 ± 2
CC(C)C[C@@H]1NC(=O)[C@H](CC(C)C)NC(=O)[C@H](Cc2c[nH]c3ccccc23)NC(=O)[C@H](CO)NC(=O)[C@H](Cc2c[nH]c3ccccc23)NC(=O)[C@@H]2CCCN2C(=O)[C@H](CC(C)C)NC(=O)[C@H](Cc2c[nH]cn2)NC(=O)[C@@H]2CCCN2C(=O)[C@H](CC(N)=O)NC(=O)[C@H](C)NC(=O)[C@H](Cc2ccc(O)cc2)NC(=O)[C@H](CS)NC(=O)[C@H](CCCCNC(=O)CN2CCN(CC(=O)O)CCN(CC(=O)O)CCN(CC(=O)O)CC2)NC1=O [lutetium-177 labelled]  radiochemical purity (radio-HPLC; mouse serum; 24 h, 37 °C): > 97%
N#C[C@@]1(n2ccc(N)nc2=O)O[C@H](CO)[C@@H](O)[C@H]1O  viability (Salmonella typhimurium; TA98; 600 nM, without S9): 102%
CNC(=O)c1c(N(C)N=O)ncn1C  revertant colonies per plate (Salmonella typhimurium; mutagenicity, Ames plate incorporation; TA1535; 2500 µg/plate, without S9, methanol): 21.7 ± 6
OC(CCN1CC=C(c2ccc(F)cc2)CC1)c1ccc(F)c2ccccc12 (stereo not drawn)  induction factor (Salmonella typhimurium; genotoxicity, SOS/umu test; TA1535/pSK1002; 0.25 mg/mL, 4 h, without S9, lower range): 0.2
COc1cccc(-c2n[nH]c(SCc3ccccn3)n2)c1OC  revertant colonies per plate (Salmonella typhimurium; Ames test, preincubation; TA1537; 0.063 mg/plate, with rat liver S9): 14
O=[N+]([O-])c1ccc(NC2CCNCC2)c(C(F)(F)F)c1  induction factor (Salmonella typhimurium; genotoxicity, SOS/umu test; TA1535/pSK1002; 0.063 mg/mL, 4 h, without S9, full range): 0.6
CN(CC(C)(C)C)N=O  revertant colonies per plate (Salmonella typhimurium; mutagenicity, Ames plate incorporation; TA98; 150 µg/plate, without S9, methanol): 22.3 ± 7
Fc1ccc(C2=CCNCC2)cc1  induction factor (Salmonella typhimurium; SOS response, SOS/umu test; TA1535/pSK1002, TGA medium; 1 mg/mL, 4 h, together with: 10% rat liver S9; relative to: untreated): 2
CC(=O)N1CCC(C(=O)N2CCN3C(=O)c4cc(-c5ccccc5)ccc4NC(=O)C3C2)CC1 (stereo not drawn)  revertants per plate (Salmonella typhimurium; TA1537; 50 µg/plate): 14

A few entries again:
O=[N+]([O-])c1ccc(N2CCN(CCC(O)c3ccc(F)cc3)CC2)c(C(F)(F)F)c1 (stereo not drawn)  survival (Salmonella typhimurium; SOS/umu test; TA1535/pSK1002; 0.001 mg/mL, 4 h, without S9 activation): 114%
O=NN1CCN(C2CCCC2)CC1  revertant colonies per plate (Salmonella typhimurium; mutagenicity, Ames plate incorporation; TA98; 150 µg/plate, 3 d, without S9, methanol): 23.7 ± 5
